Results pooled from the literature.
Each line is one published result; not all experiments were run side by side.
Chain of UniProt P49841 (whole entry, looked up): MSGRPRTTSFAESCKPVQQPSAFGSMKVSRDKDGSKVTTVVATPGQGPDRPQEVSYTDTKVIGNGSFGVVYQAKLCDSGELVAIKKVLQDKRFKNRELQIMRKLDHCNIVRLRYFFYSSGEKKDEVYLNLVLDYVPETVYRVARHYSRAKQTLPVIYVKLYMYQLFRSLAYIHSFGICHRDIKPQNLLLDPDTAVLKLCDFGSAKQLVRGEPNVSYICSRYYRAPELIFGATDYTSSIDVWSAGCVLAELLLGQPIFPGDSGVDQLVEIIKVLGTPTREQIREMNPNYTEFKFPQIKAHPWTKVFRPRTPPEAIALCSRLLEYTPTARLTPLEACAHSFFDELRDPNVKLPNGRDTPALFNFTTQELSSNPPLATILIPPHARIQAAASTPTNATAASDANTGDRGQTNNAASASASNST
Chain of UniProt P06239 (whole entry, looked up): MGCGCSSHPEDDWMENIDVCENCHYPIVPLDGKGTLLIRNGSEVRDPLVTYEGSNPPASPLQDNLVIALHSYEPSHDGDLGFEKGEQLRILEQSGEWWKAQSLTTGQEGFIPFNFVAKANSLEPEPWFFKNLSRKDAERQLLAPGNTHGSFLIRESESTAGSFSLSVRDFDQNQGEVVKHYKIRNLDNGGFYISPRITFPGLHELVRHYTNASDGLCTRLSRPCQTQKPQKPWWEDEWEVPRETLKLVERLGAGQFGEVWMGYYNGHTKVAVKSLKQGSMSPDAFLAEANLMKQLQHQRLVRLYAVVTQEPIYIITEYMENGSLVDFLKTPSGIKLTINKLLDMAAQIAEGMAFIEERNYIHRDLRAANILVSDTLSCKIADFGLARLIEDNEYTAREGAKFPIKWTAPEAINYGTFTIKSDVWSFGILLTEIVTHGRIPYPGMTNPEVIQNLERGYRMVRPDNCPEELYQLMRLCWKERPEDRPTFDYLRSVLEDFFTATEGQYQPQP
Chain of UniProt O43318 (whole entry, looked up): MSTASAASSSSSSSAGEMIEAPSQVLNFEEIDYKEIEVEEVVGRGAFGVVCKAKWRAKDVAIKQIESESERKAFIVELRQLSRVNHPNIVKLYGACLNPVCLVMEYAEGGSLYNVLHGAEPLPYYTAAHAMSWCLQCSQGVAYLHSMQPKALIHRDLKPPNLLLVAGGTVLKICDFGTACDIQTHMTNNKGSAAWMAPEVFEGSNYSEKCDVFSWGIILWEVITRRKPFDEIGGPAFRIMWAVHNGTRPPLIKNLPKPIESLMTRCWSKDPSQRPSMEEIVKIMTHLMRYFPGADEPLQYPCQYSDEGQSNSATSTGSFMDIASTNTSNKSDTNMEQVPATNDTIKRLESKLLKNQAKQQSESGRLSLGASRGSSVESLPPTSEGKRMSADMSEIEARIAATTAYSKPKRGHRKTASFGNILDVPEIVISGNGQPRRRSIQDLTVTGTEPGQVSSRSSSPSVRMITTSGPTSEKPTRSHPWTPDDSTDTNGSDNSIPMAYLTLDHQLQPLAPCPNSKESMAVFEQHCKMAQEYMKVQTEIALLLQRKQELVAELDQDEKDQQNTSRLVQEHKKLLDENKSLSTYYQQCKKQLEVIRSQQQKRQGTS

Structure (SMILES) = N#C[C@@]12C[C@@H]1[C@@H](n1cnc3c(N[C@@H](C4CCC4)C4CC4)nc(I)nc31)[C@H](O)[C@@H]2O; system = male Wistar rat, plasma; conditions = oral, 1 mg/kg; quantity = AUC(0-t); result = 15.9 ng·h/mL
Structure (SMILES) = N=C(N)c1cccc(OCCCCCOc2cccc(C(=N)N)c2)c1; test = haemolysis; system = sheep; conditions = 200 µg/mL, 20 h; quantity = haemolysis; result = 0.1%
Structure (SMILES) = NCCOCC(=O)N1CCC[C@H](C(=O)NCc2nc(-c3ccc(C(F)(F)F)cc3)cs2)C1; test = metabolic stability; system = human, liver microsomes; conditions = 0.5 µM; quantity = scaled CLint; result = < 3.5 mL/min/kg
Structure (SMILES) = CCc1nc2c(C)cc(N3CCN(CC(=O)N4CC(O)C4)CC3)cn2c1N(C)c1nc(-c2ccc(F)cc2)c(C#N)s1; system = human, plasma; conditions = oral, 600 mg, fed, healthy volunteers; quantity = Cmax; result = 8200 ng/mL
Structure (SMILES) = Fc1ccccc1Nc1nc(-c2ccccn2)nc2ccccc12; test = metabolic stability; system = mouse, liver microsomes; quantity = microsomal CLint; result = 196 µL/min/mg
Structure (SMILES) = COc1ccc([C@@H](O)c2cc(-c3ncnc4cc(N5CCOCC5)ccc34)c(F)cc2Cl)nn1; system = human, plasma; conditions = oral, 250 mg, multiple doses, once daily, patients; quantity = Cmax; result = 3150 ng/mL
Structure (SMILES) = CC(=O)CC(c1ccccc1)c1c(O)c2ccccc2oc1=O (stereo not drawn); test = metabolic stability; system = human, hepatocytes; conditions = 0.5 µM, pH 7.4; quantity = hepatocyte CLint; result = 1.65 µL/min/10⁶ cells
Structure (SMILES) = Cc1ncsc1-c1ccc(CNC(=O)[C@@H]2C[C@@H](O)CN2C(=O)[C@@H](NC(=O)CCCCCCCCCCNC(=O)O[C@H]2C[C@@H](C)C=C3C=C[C@H](C)[C@H](CC[C@@H]4C[C@@H](O)CC(=O)O4)[C@H]32)C(C)(C)C)cc1; system = C57BL/6 mouse, plasma; conditions = oral, 60 mg/kg, single dose; quantity = MRT(0-t); result = 8.8 h
Structure (SMILES) = Cn1nc2c(=O)n(C3CC3)ccc2c1[C@](O)(c1ccc(C(F)(F)F)nc1)C1CC1; test = metabolic stability; system = human, hepatocytes; conditions = 0.5 µM, pH 7.4; quantity = hepatocyte CLint; result = 1.3 µL/min/10⁶ cells
Structure (SMILES) = CCN1CCN(Cc2ccc(NC(=O)c3ccc(C)c(NC(=O)c4cncc(-c5cccs5)c4)c3)cc2C(F)(F)F)CC1; system = mouse, plasma; conditions = intraperitoneal, 30 mg/kg, single dose; quantity = MRT; result = 4.12 h
Structure (SMILES) = Oc1cccc(-c2nc(N3CCC(c4ccccn4)C3)c3ccccc3n2)c1 (stereo not drawn); system = PAMPA; conditions = 10 µM, 3 h, pH 7.4; quantity = Papp; result = 33.2 ×10⁻⁶ cm/s
Structure (SMILES) = Cn1nc2c(=O)n(C3CC3)cnc2c1[C@](O)(c1cnc(C(F)(F)F)c(Cl)c1)C(F)(F)F; test = metabolic stability; system = male Sprague-Dawley rat, hepatocytes; conditions = 0.5 µM, pH 7.4; quantity = hepatocyte CLint; result = 0.6 µL/min/10⁶ cells
Structure (SMILES) = c1ccc(C2CCN(c3nc(-c4cnn5cccnc45)nc4ccccc34)C2)nc1 (stereo not drawn); system = PAMPA; conditions = 10 µM, 3 h, pH 7.4; quantity = Papp; result = 22.4 ×10⁻⁶ cm/s
Structure (SMILES) = COc1cc(C(=O)NC2CCN(C)CC2)c(F)cc1Nc1ncc(C(F)(F)F)c(Oc2cccc3c2C(=O)N(C)C3)n1; system = human, plasma; conditions = oral, 300 mg, single dose, patients; quantity = Vd/F; result = 166 L
Structure (SMILES) = C=CC(=O)N1CCC(COCC(=O)N2CCN(c3nc(-c4cnc(N)nc4C(F)F)nc(N4CCOC[C@@H]4C)n3)CC2)CC1; target or system = Mitogen-activated protein kinase kinase kinase 7 (MAP3K7, Homo sapiens, UniProt O43318); test = binding, competition with immobilised ligand; conditions = 1 µM; quantity = remaining binding; result = 98%
Structure (SMILES) = N=C(N)c1ccccc1OCCCCCOc1ccccc1C(=N)N; test = haemolysis; system = sheep; conditions = 200 µg/mL, 1 h; quantity = haemolysis; result = 0%
Structure (SMILES) = COc1ccc2c(c1)CN(C(=O)CCN1CCC(Cc3ccccc3)CC1)CC[S@@+]2[O-]; system = male human, plasma; conditions = intravenous, 0.4 mg/kg, single dose, healthy volunteers; quantity = half-life; result = 269 min
Structure (SMILES) = Cc1ccc2cncc(N3CCc4c(cc(Cn5ccnc5)cc4-c4cn(C)nc4C(F)(F)F)C3=O)c2c1; system = male CD-1 mouse, plasma; conditions = oral, 10 mg/kg; quantity = MRT(0-inf); result = 1.7 h
Structure (SMILES) = COc1cc(-c2cncc3c2CN(C)Cc2cc(N4CCNCC4)ccc2-3)cc(OC)c1OC; target or system = Tyrosine-protein kinase Lck (LCK, Homo sapiens, UniProt P06239); test = enzyme activity, inhibitor; conditions = 1 µM; quantity = remaining activity; result = 49%
Structure (SMILES) = O=C1CC[C@H](N2Cc3cc(N4CCN(CC5CCN(c6ccc([C@@H]7c8ccc(O)cc8CC[C@@H]7c7ccccc7)cc6)CC5)CC4)ccc3C2=O)C(=O)N1; system = female Sprague-Dawley rat, plasma; conditions = oral, 20 mg/kg, fed; quantity = AUC(0-inf); result = 18400 ng·h/mL
Structure (SMILES) = CCOC(=O)[C@@]12C[C@@H]1[C@@H](n1ccc3c(NC)nc(C#Cc4ccc(Cl)s4)nc31)[C@H](O)[C@@H]2O; system = male Sprague-Dawley rat, plasma; conditions = intravenous, 0.5 mg/kg, 1 h; quantity = concentration; result = 9.69 ng/mL
Structure (SMILES) = NC(=O)c1cccc(-c2nc(N3CCC(c4ccccn4)C3)c3ccccc3n2)c1 (stereo not drawn); test = metabolic stability; system = mouse, liver microsomes; quantity = microsomal CLint; result = 378 µL/min/mg
Structure (SMILES) = N=C(N)c1ccc(OCc2cc(COc3ccc(C(=N)N)cc3)cc(-c3ccccc3)c2)cc1; test = haemolysis; system = sheep; conditions = 200 µg/mL, 1 h; quantity = haemolysis; result = 32%
Structure (SMILES) = O=C(N1CCCCC1)C12CC(c3ccccc3)(C1)C2; test = metabolic stability; system = human, liver microsomes; conditions = 2 µM, 15 min, pH 7.4; quantity = compound remaining; result = 95%
Structure (SMILES) = O=C(c1ccc(F)cc1)C1CCN(CCn2c(=O)[nH]c3ccccc3c2=O)CC1; test = metabolic stability, mass spectrometry; system = human, liver microsomes; conditions = 5 min; quantity = compound remaining; result = 91.5%
Structure (SMILES) = CC(C)NCCOCC(=O)N1CCC[C@H](C(=O)NCc2nc(-c3ccc(C(F)(F)F)cc3)cs2)C1; test = metabolic stability; system = male Sprague-Dawley rat, liver microsomes; conditions = 0.5 µM; quantity = microsomal CLint; result = 19 µL/min/mg
Structure (SMILES) = O=C(Nc1ccc(CN2CCOCC2)c(C(F)(F)F)c1)c1ccc(C#Cc2cccc3cnccc23)cn1; system = Caco-2; quantity = Papp A→B; result = 1.11 ×10⁻⁶ cm/s
Structure (SMILES) = NCc1cc2c(cc1F)C(=O)N(C1CCC(=O)NC1=O)C2 (stereo not drawn); system = male cynomolgus monkey, plasma; conditions = oral, 0.3 mg/kg, 1 h; quantity = concentration; result = 1.02 ng/mL
Structure (SMILES) = N=C(N)c1ccc(OCCSCCOc2ccc(C(=N)N)cc2)cc1; test = haemolysis; system = sheep; conditions = 200 µg/mL, 1 h; quantity = haemolysis; result = 0.2%
Structure (SMILES) = CNc1ncc2c(/C=C/C(=O)N3CCC(OC)CC3)nn(Cc3cccc(C(F)(F)F)c3)c2n1; target or system = Glycogen synthase kinase-3 beta (GSK3B, Homo sapiens, UniProt P49841); test = enzyme activity, inhibitor, radiometric; conditions = 1 µM; quantity = remaining activity; result = 100%
Structure (SMILES) = Cc1ccc(S(=O)(=O)n2cc3c4c2C(=O)C(NCc2ccc(Cl)cc2)=CC4=NCC3)cc1; system = rat, plasma; conditions = intravenous, 5 mg/kg, single dose; quantity = AUC(0-t); result = 1590 ng·h/mL
Structure (SMILES) = Fc1cccc(F)c1-c1nc(N2CCC(c3ccccn3)C2)c2ccccc2n1 (stereo not drawn); test = metabolic stability; system = mouse, liver microsomes; quantity = microsomal CLint; result = 548 µL/min/mg
Structure (SMILES) = CC(=O)N(C)[C@H]1CCN(C(=O)c2cnc3c(c2)C[C@](C)(c2ccc(F)cc2)N3)C1; system = male human, plasma; conditions = oral, 60 mg, multiple doses, once daily, steady state; quantity = Cmax; result = 1630 nM
Structure (SMILES) = Cc1nn(C2CC2)c(=O)c2nn(C)c(Cc3ccc(C(F)(F)F)c(C#N)c3)c12; test = metabolic stability; system = male Sprague-Dawley rat, hepatocytes; conditions = 0.5 µM, pH 7.4; quantity = hepatocyte CLint; result = 1 µL/min/10⁶ cells
Structure (SMILES) = O=c1c2c([nH]c3cccc(Oc4ccc(OC(F)(F)F)cc4)c13)CCCC2; test = metabolic stability; system = mouse, liver microsomes; conditions = 1 µM, pH 7.4; quantity = microsomal CLint; result = 117 µL/min/mg
Structure (SMILES) = O=C(COc1ccc(Cl)cc1)NC12CC(c3nnc([C@H]4C[C@@H](OC(F)(F)F)C4)o3)(C1)C2; system = human, plasma; conditions = oral, 100 mg, multiple doses, once daily, steady state, healthy volunteers; quantity = AUC; result = 87.9 µM·h
Structure (SMILES) = CCn1cnc2c([C@@](O)(CC)c3ccc(C(F)(F)F)nc3)n(C)nc2c1=O; test = metabolic stability; system = human, hepatocytes; conditions = 0.5 µM, pH 7.4; quantity = hepatocyte CLint; result = 3.1 µL/min/10⁶ cells
Structure (SMILES) = O=c1c2ccc(Oc3ccc(OC(F)(F)F)cc3)cc2[nH]c2ccc(Cl)c(F)c12; test = metabolic stability; system = mouse, liver microsomes; conditions = 1 µM, pH 7.4; quantity = microsomal CLint; result = 1.26 µL/min/mg
Structure (SMILES) = c1ccc(-c2nc(N3CCOCC3)c3ccccc3n2)nc1; test = metabolic stability; system = mouse, liver microsomes; quantity = microsomal CLint; result = 165 µL/min/mg
Structure (SMILES) = CN(c1ccc(F)cc1)c1c(-c2cc(Cl)ccn2)nc2ccccn12; test = metabolic stability; system = rat, hepatocytes; quantity = hepatocyte CLint; result = > 300 µL/min/10⁶ cells
Structure (SMILES) = CC/C(=C(\c1ccc(O)cc1)c1ccc(OCCNC)cc1)c1ccccc1; system = female C57BL/6 mouse, plasma; conditions = oral, 1 mg/kg, single dose; quantity = Cmax; result = 1 ng/mL
Structure (SMILES) = COCC(=O)N1CCC[C@H](C(=O)NCc2nc(-c3ccc(-c4ccccc4)cc3)cs2)C1; test = metabolic stability; system = human, liver microsomes; conditions = 0.5 µM; quantity = microsomal CLint; result = 62 µL/min/mg
Structure (SMILES) = COc1cccc(-c2n[nH]c(SCc3ccccn3)n2)c1OC; system = male Sprague-Dawley rat, plasma; conditions = oral, 30 mg/kg, 15 min, single dose; quantity = concentration; result = 44900 ng/mL
Structure (SMILES) = CC(C)[N+](C)(CCOC(=O)C1c2ccccc2Oc2ccccc21)C(C)C; test = metabolic stability; system = human, plasma; conditions = 2 h; quantity = compound remaining; result = 2.01%
Structure (SMILES) = COc1ccc([C@@H]2Sc3ccccc3N(CCN(C)C)C(=O)[C@@H]2OC(C)=O)cc1; test = metabolic stability; system = human, hepatocytes; conditions = 0.5 µM, pH 7.4; quantity = hepatocyte CLint; result = 13.7 µL/min/10⁶ cells

Repeated from above:
Structure (SMILES) = COc1ccc2c(c1)CN(C(=O)CCN1CCC(Cc3ccccc3)CC1)CC[S@@+]2[O-]; system = male human, plasma; conditions = intravenous, 0.4 mg/kg, single dose, healthy volunteers; quantity = half-life; result = 269 min
Structure (SMILES) = Cc1ccc2cncc(N3CCc4c(cc(Cn5ccnc5)cc4-c4cn(C)nc4C(F)(F)F)C3=O)c2c1; system = male CD-1 mouse, plasma; conditions = oral, 10 mg/kg; quantity = MRT(0-inf); result = 1.7 h
Structure (SMILES) = COc1cc(-c2cncc3c2CN(C)Cc2cc(N4CCNCC4)ccc2-3)cc(OC)c1OC; target or system = Tyrosine-protein kinase Lck (LCK, Homo sapiens, UniProt P06239); test = enzyme activity, inhibitor; conditions = 1 µM; quantity = remaining activity; result = 49%
Structure (SMILES) = O=C1CC[C@H](N2Cc3cc(N4CCN(CC5CCN(c6ccc([C@@H]7c8ccc(O)cc8CC[C@@H]7c7ccccc7)cc6)CC5)CC4)ccc3C2=O)C(=O)N1; system = female Sprague-Dawley rat, plasma; conditions = oral, 20 mg/kg, fed; quantity = AUC(0-inf); result = 18400 ng·h/mL
Structure (SMILES) = CCOC(=O)[C@@]12C[C@@H]1[C@@H](n1ccc3c(NC)nc(C#Cc4ccc(Cl)s4)nc31)[C@H](O)[C@@H]2O; system = male Sprague-Dawley rat, plasma; conditions = intravenous, 0.5 mg/kg, 1 h; quantity = concentration; result = 9.69 ng/mL
Structure (SMILES) = NC(=O)c1cccc(-c2nc(N3CCC(c4ccccn4)C3)c3ccccc3n2)c1 (stereo not drawn); test = metabolic stability; system = mouse, liver microsomes; quantity = microsomal CLint; result = 378 µL/min/mg
Structure (SMILES) = N=C(N)c1ccc(OCc2cc(COc3ccc(C(=N)N)cc3)cc(-c3ccccc3)c2)cc1; test = haemolysis; system = sheep; conditions = 200 µg/mL, 1 h; quantity = haemolysis; result = 32%
